Assay results from different studies.
A part holds a random share of what one study measured. Changes are numbered by the printed parent chain.

Study 1
Target: CCND2, cyclin fold, Cln2 fusion (human)
Method: yeast growth competition, sequencing
Medium: yeast
Setting: weak parent motif
Reference: not given
Direction: higher = stronger binding
Endpoint: normalised enrichment score
Parent: CDC25A docking peptide (human); PPHRRRLLFACSP; partner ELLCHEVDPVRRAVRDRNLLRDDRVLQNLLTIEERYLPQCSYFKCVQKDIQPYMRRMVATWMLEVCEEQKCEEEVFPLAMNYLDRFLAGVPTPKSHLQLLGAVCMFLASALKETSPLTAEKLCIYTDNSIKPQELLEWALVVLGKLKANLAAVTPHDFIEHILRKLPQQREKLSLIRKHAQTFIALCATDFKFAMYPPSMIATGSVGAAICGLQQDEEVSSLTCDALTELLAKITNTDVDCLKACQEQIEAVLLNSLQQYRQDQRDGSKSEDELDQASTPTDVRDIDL
R4Y: 0.405
A10G: -0.21
L7W: 0.0512
A10M: 0.262
C11L: -0.118
F9T: 0.435
C11P: 0.375
R5N: -0.26
R4S: -0.122
R5V: 0.386
S12F: -0.0872
F9S: 0.501
P2H: 0.167
P13N: 0.207
R4P: -0.0571
L7I: 0.377
R4D: 0.118
R5C: -0.0993

Study 2
Target: Histone acetyltransferase KAT6A, winged helix 1, GST fusion (KAT6A, Homo sapiens, UniProt Q92794, residues 1-85)
Method: protein binding microarray
Molecule type: double-stranded DNA, one strand shown
Medium: in vitro
Tested at: not given
Setting: 8-mer, flanks averaged, mean of 2 arrays, mostly near background
Reference: not given
Direction: higher = stronger binding
Endpoint: E-score
Target sequence (chain): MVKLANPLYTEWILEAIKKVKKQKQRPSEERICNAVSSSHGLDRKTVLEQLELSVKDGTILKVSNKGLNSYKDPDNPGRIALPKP
ACACCAGG: -0.192
CGCACAAG: 0.0643
CTCAGAAG: -0.151
GCTGATAC: -0.0141
ACTTCCGG: 0.144
AATACGGA: 0.152
CTAGATGA: -0.117
ATTGCCTC: -0.151
CTACTCGA: 0.0186
GCCCTGAC: -0.0586
CGACCTGC: 0.17
AGCTGAAC: -0.324
AATTAGTG: -0.106
GGCGACGA: 0.0616
CAGAATTC: -0.238
CGCGCTAA: 0.384
CGGGAGTA: 0.243
CCTTGTCC: -0.0574
AAACACTG: 0.0289
GTACCCAA: -0.0803
CTATATTC: -0.172
AGCGGTGA: 0.16
TGATTCCA: -0.198
GACTCCTA: -0.126

Study 3
Target: ABI1, truncated, D143A, DHFR fusion (Arabidopsis thaliana)
Method: DHFR PCA, deep sequencing
Medium: yeast
Setting: methotrexate growth selection, single substitutions
Added: (+)-ABA 0.0091 µM
Reference: wild-type fitted maximum
Direction: higher = stronger binding
Endpoint: relative binding score
Parent: PYL1, truncated, DHFR fusion (Arabidopsis thaliana); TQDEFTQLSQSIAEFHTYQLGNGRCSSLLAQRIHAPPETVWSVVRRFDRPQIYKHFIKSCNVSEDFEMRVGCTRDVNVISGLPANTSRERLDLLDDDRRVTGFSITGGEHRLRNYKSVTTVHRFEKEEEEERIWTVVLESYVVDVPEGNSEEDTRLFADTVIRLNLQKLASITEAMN
E125N: 20.4%
D3F: 38.4%
S63G: 40.8%
S11I: 27.7%
T135N: 1.76%
E4S: 3.06%
F5H: 4.06%
E131K: 63.4%
G81C: 33.9%
W134D: 19.1%
E89P: 2.46%
V43L: 16.8%
G71I: 0.155%
E38R: -0.526%
L166N: -2.02%

Study 4
Target: Eukaryotic initiation factor 4A-I (EIF4A1, Homo sapiens, UniProt P60842, residues 1-406, full length assumed)
UniProt P60842, sequence (whole entry, looked up): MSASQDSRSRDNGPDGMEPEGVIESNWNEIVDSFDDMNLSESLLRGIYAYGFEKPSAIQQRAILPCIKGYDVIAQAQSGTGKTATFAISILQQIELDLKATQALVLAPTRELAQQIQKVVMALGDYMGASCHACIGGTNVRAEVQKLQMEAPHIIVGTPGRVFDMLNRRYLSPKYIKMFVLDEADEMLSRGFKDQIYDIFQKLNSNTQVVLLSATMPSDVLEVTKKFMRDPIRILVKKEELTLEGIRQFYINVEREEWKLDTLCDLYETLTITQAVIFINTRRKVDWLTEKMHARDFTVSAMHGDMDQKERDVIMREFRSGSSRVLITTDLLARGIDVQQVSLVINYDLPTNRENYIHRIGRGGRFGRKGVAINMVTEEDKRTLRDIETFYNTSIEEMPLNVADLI
Method: RNA Bind-n-Seq
Molecule type: RNA
Medium: in vitro
Tested at: 15 pmol
Setting: 4-mer, random 30-nt RNA, single round
Added: 3 µM RocA, 2 mM AMP-PNP
Reference: mean of 4-mers
Direction: higher = stronger binding
Endpoint: 4-mer enrichment Z-score
UACG: -0.334
UUUU: 0.479
CUUU: -0.629
UCCC: -1.18
CCUC: -1.42
CCGA: -0.304
UAAG: 1.14
CAAU: -0.908
ACCC: -0.998
CGUU: -0.251
GAAC: 0.146
AGAC: -0.32
CGCG: 0.486
AGCC: -0.673
AGAA: 2.29
UCCU: -1.15

Study 5
Target: TAR DNA-binding protein 43, full length, His tag (TARDBP, Homo sapiens, UniProt Q13148, residues 1-414)
Method: RNA Bind-n-Seq
Molecule type: RNA
Medium: in vitro
Tested at: 20 nM
Setting: 6-mer, flanks averaged, single round
Added: 150 mM KCl
Reference: input library
Direction: higher = stronger binding
Endpoint: 6-mer enrichment (R)
AGCCCG: 0.764
UUUCGG: 0.777
GCCGCC: 0.869
GGGGCC: 3.88
GCUAUA: 0.653
UGGUAC: 0.79
GUGAAA: 1.01
ACGUUG: 0.75
GCGAUG: 1.41
GAGCAG: 1.57
UAACUG: 0.655
CGAAAU: 0.595
AACGGU: 0.805
CUAGCG: 0.955
UUCACG: 0.621
CGCGUC: 0.783
CAGUGA: 0.848
AGGCAC: 0.899
GGGAGC: 3.69

Study 6
Target: Sal-like protein 4, full length isoform A (SALL4, Homo sapiens, UniProt Q9UJQ4, residues 1-1053)
UniProt Q9UJQ4, sequence (whole entry, looked up): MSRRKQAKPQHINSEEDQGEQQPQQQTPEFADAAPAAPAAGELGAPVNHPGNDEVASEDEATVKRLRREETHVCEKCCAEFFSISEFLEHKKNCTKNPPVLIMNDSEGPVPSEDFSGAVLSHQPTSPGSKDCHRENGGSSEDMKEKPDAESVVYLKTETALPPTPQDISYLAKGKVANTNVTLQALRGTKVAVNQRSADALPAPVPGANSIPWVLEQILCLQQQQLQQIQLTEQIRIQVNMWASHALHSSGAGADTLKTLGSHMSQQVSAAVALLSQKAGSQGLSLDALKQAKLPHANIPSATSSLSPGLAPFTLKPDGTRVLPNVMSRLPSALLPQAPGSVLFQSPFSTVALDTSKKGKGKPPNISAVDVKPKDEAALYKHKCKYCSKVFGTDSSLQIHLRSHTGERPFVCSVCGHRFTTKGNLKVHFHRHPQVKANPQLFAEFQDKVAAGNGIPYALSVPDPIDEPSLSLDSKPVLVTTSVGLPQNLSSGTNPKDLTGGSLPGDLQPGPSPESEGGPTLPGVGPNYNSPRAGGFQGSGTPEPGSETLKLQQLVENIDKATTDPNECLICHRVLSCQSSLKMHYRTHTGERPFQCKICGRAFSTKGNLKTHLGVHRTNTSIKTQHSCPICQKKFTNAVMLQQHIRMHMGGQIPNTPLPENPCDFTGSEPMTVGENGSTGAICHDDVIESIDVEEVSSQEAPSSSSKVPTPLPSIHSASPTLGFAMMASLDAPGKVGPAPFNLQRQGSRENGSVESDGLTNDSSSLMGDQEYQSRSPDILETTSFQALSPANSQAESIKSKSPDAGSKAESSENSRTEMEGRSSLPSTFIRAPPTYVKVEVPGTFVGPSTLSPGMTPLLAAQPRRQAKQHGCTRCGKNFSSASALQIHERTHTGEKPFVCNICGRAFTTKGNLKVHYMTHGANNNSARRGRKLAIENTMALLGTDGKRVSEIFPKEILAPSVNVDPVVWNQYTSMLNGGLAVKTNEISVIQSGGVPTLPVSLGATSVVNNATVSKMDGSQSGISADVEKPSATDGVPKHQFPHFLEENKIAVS
Method: universal PBM
Molecule type: double-stranded DNA, one strand shown
Medium: in vitro
Tested at: 600 nM
Setting: 8-mer, flanks averaged, mean of replicates
Direction: higher = stronger binding
Endpoint: E-score
CATACTAA: 0.207
ATCCGCCC: -0.267
GCGAGCCC: -0.376
AGGAATTA: 0.269
AAAATTAT: 0.451
CCTCTGCC: -0.201
CACGGTAC: -0.25
GGTGCGCA: -0.0923
GGCCTGAC: -0.233
AAACTATG: 0.176
ATTCGTCC: 0.105
GTCGAACA: -0.0623
GTCTGAGA: -0.052
ATCTAGAA: 0.237
GTGTGGAA: 0.0989
AGACACAA: 0.179
TAATCTAA: 0.278
ACTTTGCG: -0.147
CCCGGTGA: -0.355
CTGGCCAA: -0.191

Study 7
Target: Interferon regulatory factor 7, full length, phosphomimetic (IRF7, Homo sapiens, UniProt Q92985, residues 1-503, S101K/S471D/S472D/S475D/S476D/S477D/S483D/S484D/S487D)
Method: protein-binding microarray
Molecule type: double-stranded DNA, one strand shown
Medium: in vitro
Tested at: 250 nM
Setting: 60-bp whole probe
Added: salmon DNA 0.4 mg/ml
Reference: random background probes
Direction: higher = stronger binding
Endpoint: log fluorescence
Constant ends, left off below: GCCTAGCAC … GTCTTGATTCGCTTGACGCTGCTG
Residues (chain): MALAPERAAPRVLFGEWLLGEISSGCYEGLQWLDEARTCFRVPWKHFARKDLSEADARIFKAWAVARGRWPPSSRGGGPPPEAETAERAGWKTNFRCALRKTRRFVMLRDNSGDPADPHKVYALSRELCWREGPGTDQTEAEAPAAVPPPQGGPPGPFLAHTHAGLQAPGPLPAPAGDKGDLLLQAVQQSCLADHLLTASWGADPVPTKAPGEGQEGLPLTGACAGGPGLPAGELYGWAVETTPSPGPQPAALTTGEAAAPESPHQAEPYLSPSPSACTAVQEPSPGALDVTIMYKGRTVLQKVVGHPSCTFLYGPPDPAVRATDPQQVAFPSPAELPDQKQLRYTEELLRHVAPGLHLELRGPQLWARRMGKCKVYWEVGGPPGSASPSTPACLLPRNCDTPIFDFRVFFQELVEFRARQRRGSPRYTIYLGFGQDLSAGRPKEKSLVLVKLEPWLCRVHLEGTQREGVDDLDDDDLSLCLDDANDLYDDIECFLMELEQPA
TTCGGACTGCTTCTCCTTTAGTGCTAG: -0.189 z-score
GACGGTTTCGACTTTCGAGACGTGCTA: 11.1 z-score
GAAGCTTCCTCTCTGCCACTGTGCTAG: 0.0452 z-score
TTAGGTTTCGGCCTGGGTTAGTGCTAG: 2.75 z-score
GACGAACTGCGTCTCGAGACGTGCTAG: -0.0684 z-score
GACCGTCTCCTACTGCTGACGTGCTAG: -0.0209 z-score
GACGAACTGGGGTTTCGACACGTGCTA: 0.914 z-score
GACGAGTTCGGGTTTCGAGACGTGCTA: 3.76 z-score
TTAGAGTCCAGTTTCGATTAGTGCTAG: 8.23 z-score
GACGAACTGAGATTCGAGACGTGCTAG: 0.433 z-score
TTAGGACTGCTTCTCCCTTAGTGCTAG: 0.5 z-score
TCTTTTATGGTATTTTTTTGGTGCTAG: 1.16 z-score
TCAACACTAGTTTTCATACTGTGCTAG: 0.176 z-score
GAGGGTATCGGTCTCGGGACGTGCTAG: 0.18 z-score
GACGGTTTCGGACTGCGGACGTGCTAG: 5.06 z-score
TCAGCTTTCCTTTATGTACTGTGCTAG: 0.737 z-score
GACGGTATCGGTTTTGGGACGTGCTAG: 3.5 z-score
TCAAGTTTCACTTTCCAACTGTGCTAG: 9.72 z-score

Excerpt of the above (study 1):
A10M: 0.262
P2H: 0.167
F9T: 0.435
F9S: 0.501
R4Y: 0.405
P13N: 0.207
R5V: 0.386
L7I: 0.377
L7W: 0.0512
R4S: -0.122
C11P: 0.375
A10G: -0.21
R5N: -0.26
S12F: -0.0872
C11L: -0.118
R5C: -0.0993
R4P: -0.0571
R4D: 0.118
